Results collected from several papers.
Numbered parts are unrelated; each lists some results of a single study.

Study 1 — technique: RNA Bind-n-Seq; molecule type: RNA; matrix: in vitro; tested at: 365 nM; baseline: no-protein control; direction: higher = stronger binding; quantity: RBNS enrichment (R)
Target: RNA binding protein fox-1 homolog 2, RRM domain, GST-SBP tag (RBFOX2, Homo sapiens, UniProt O43251-10, residues 100-194)
Notes: natural RNA segment, single round, ends assumed
Shared flanks, not repeated: GGGAGUUCUACAGUCCGACGAUC … UGGAAUUCUCGGGUGCCAA
Construct (chain): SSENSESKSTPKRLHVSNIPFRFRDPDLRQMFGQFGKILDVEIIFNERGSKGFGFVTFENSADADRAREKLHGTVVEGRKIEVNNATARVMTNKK
Sequence = GGAGAAAGGUUGAGAUAAGAAUGUCCCAUGGAGUGCCGUGGGCAACAGUGGCCCUUCAUGGGAACAAUCUGUUGGAGCAGGGGGUCAGUUCUCUGCUGGGAAUCUACCCC; value = 0.345
Sequence = AAAGCACUUAAAAGUGCAAGCAUGUCCUAAAUAGCCAUUUAACCUGGUAAAACAUAGGCUUUUCUGUUUAAUUAAGUAUUAGACCAGUCUGUAGAUAUAAUCUGAAAAGA; value = 0.804
Sequence = UAGAGAAGCAGGAGAACAGACAAUCUGGUGUCCAGCCCUAAAGAACCACCAGGCGCUGUUAAGCAAUACCUGGGGACGCACUAAAAUAGCUGCAGCGGGAUGCUGGGGAG; value = 0.353
Sequence = UACUGACAUGAGUGUCCAAUAUAUGGUAUAUUUUUCUAAUAUAAUACUCUGGUAUGAUUGGUUCUGUUGGAAACUGAUUUAGGUGAAUACAGACAUACCAUAGGGGUAAG; value = 0.407
Sequence = AAAGUAUGUUCAUGAAUACCCCAAGCAUCAAGGUCUAAAUAAUUUUCAGAAGAUUAGAAUUGGGUAGAUAUACUGUUGGAUAUAGCCAUGGUAAAUUUAACUGAGGAAUU; value = 0.62
Sequence = UGAAUUAAUCUUUUCUCUUAAUUUUUAUUAUGUACUAGUUGUAUUAAAGCUAAUGUGUUUACUUUUUCCUCUUGUGGAUUUGUAGCUGUUUAAAAUUUCAGGUGAAUUUC; value = 0.809
Sequence = UGACUAGAUAUAGCACCUAUUAAAAGAGAACUCUUGCUUCUUCUGAGAUUUUUCAAGCUGUGCUUUGUGUGUGUGCCAGUAGACUUACGCAAGGACAGGGUACAAACUUA; value = 0.392
Sequence = GUGAUCUGCACUGGCCACUUGGCAGGCACAAGCUGCUUCCUUCCCCUCAGGUCUUAACCCUUCCCAGACCUGCAGCGAUUCCUGUCGACUCCCUUACACAGUAUUGAUCU; value = 1.88
Sequence = AUAAGCUUACCAGUGACCUUGUUCACUUUGAGUCAGGGAACGUAUUUGUAAAAUUAACACUAAAGAUGCAUGUGAGUCAUUUCACCAAAAGGAACUCUAUUAAUAAGCUA; value = 4.01

Study 2 — technique: RNAcompete; molecule type: RNA; matrix: in vitro; tested at: 20 nM; notes: 7-mer, probes averaged, single round; baseline: mean of 7-mers; direction: higher = stronger binding; quantity: 7-mer Z-score
Target: PABPC1L2, full length, GST fusion (mouse, UniProt A0ABA7IW68)
Target sequence (chain): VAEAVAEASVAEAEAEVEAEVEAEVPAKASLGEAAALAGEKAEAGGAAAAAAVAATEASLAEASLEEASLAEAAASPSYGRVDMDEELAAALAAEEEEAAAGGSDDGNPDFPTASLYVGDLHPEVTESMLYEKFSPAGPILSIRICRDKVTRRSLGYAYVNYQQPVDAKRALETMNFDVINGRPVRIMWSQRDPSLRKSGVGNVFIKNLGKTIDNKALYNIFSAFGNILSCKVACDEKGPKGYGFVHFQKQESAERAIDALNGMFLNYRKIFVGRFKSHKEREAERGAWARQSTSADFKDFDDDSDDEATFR
Sequence = AGGAGGG; value = 0.358
Sequence = AUCUAGC; value = -0.153
Sequence = GUCAGGG; value = 0.164
Sequence = CACACAU; value = -0.121
Sequence = GCCGCCG; value = -0.376
Sequence = AGGCAAA; value = 1.21
Sequence = GUAAUAC; value = -0.144
Sequence = UAACGUG; value = -0.155
Sequence = AGUCUCC; value = -0.34
Sequence = GCCCGCU; value = -0.249
Sequence = GUUAUGA; value = -0.124
Sequence = GUAACCU; value = -0.204
Sequence = UCGCCCC; value = -0.394
Sequence = CGUAACU; value = -0.251
Sequence = CAACAAA; value = 1.86
Sequence = AAUUAUG; value = 0.0587
Sequence = CUUACCC; value = -0.481
Sequence = GAAGGGA; value = 0.356
Sequence = UAUCAAC; value = -0.17
Sequence = CCCGGAG; value = -0.0518
Sequence = UCUGAUG; value = -0.171
Sequence = UGUUGGG; value = -0.124
Sequence = GUCCUAC; value = -0.351
Sequence = CGCACAU; value = -0.208

Study 3 — technique: RNA Bind-n-Seq; molecule type: RNA; matrix: in vitro; tested at: not given; baseline: input RNA pool; direction: higher = stronger binding; quantity: bound/input enrichment
Target: RING finger protein unkempt homolog, zinc fingers 1-6, GST-SBP tag (UNK, Homo sapiens, UniProt Q9C0B0, residues 30-357)
Notes: RNA with constant flanks, human and mouse sites, ends assumed
Shared flanks, not repeated: GGGAGUUCUACAGUCCGACGAUC … CAACAGAGGAUUGAGCAUCA
Construct (chain): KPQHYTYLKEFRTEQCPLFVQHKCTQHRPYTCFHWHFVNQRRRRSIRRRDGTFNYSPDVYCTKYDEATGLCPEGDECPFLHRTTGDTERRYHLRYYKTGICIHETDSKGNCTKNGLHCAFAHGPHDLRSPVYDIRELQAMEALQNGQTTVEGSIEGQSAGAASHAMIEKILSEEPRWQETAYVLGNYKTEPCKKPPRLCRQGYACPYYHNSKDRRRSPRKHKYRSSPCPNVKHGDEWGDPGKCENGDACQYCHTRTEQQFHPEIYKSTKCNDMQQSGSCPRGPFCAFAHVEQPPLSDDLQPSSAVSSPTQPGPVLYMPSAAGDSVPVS
Sequence = AGGAUAUCUGGUGCAUUAUUCACUAAUGACAAAUUCCAGGUCAGCACAAAUAAAUUGACGUUUAUGGAUCUUGAGCUAAAAUUGAAAGAUAAGAACACCCUUUUUACAAGGAUUUUAAAU; value = 0.229 ratio
Sequence = CUUAUGGGAAUGUGGGAUGGAGCUCACCUUACCUACUCUCUUAAGAUAAUGACUCAAAUUAAGCUUUUUGGACACCACUUUUGUGGGGAUACACAUACGCUGAUCUAGAAAUGAAAGGUG; value = 0.762 ratio
Sequence = UGCAACCUGGACGCCAUCAAGGUCUACUGCAACAUGGAGACAGGUCAGACCUGUGUGUUCCCUACUCAGCCGUCUGUGCCUCAGAAGAACUGGUACAUCAGCCCGAACCCCAAGGAAAAG; value = 0.171 ratio
Sequence = GAGAACAUUAGGCUAAAUGAUUUCCGAGUUUCCAGCUAGUCCUAGAGUUCUAUAUUUCUACAUAGUUGAAUUAUUUUAUCAUGCUGUUGCUGGGGAAUAUGACUAACCCUUUUGAAGCUA; value = 6.07 ratio
Sequence = CUAAACUGUCAUUCACAACUUGGCUACACAUAGACUCUAGUCAGUUUUGUCUCCAGAACCUUAGGCUUUUGUAUUUUUUAAUUUUAAUUUCACUGUUAAUCCUUAUUGUCUUUUUUAUUA; value = 83.5 ratio
Sequence = ACCCAACCAGCAGAAAACCGGUCUCUGAGGUUCCACCAAAAUAUGGAACUUGAUUUUGGACACUUUGACGAAAGAGAUAAGACAUCCAGGAACAUGCGAGGCUCCCGGAUGAAUGGGUUG; value = 0.261 ratio
Sequence = AUAUAUAUACACACACACAUAUAUAUAUUUAGAAACGUGAGUGUUAAAGAUAGAAUUUGUUUUAGGACAAAUUUUAAGAAAAUGUGGGAAUACCAAAUGUCCUUUAUAAGAAAAAUAAAU; value = 0.947 ratio
Sequence = GAUGGCCUUACUAAGUUUUUUACACCAUCACCUGAUGGUCGCAGAUCCCGAGGUGAAAUAAUAGACUUUUCAAAGCACUAUCGUCCAAGGAAAAAGGUCUCUCAGAAACAGUCAUGCACU; value = 0.134 ratio
Sequence = CGCUGCCUCGGUGCAGGACGAGCGGAGGGGCUUUUGCAGCGGCCGUCGCCGCGGGAGGAGGGGGUUGAGCUGGCUCCGGAGUUGGCCAAAGAAGGUGGGCAUUUCUCGCUUCUCCUCGCC; value = 0.112 ratio
Sequence = AACUCAAACCCAGCCCUCAAUGACAACCUAGAGAAGGGACUCCUGAAAGCCCUGAAGGUUCUAGACAAUUACCUGACAUCCCCCCUCCCAGAAGAAGUGGAUGAAACCAGCGCCGAAGAU; value = 0.747 ratio
Sequence = CUGUACCAGAAAGACUUCCUGCGCAUCGCGGGCCUGUGUCAGGACACUGCUCAGAGCUACACGUUUGGGUGUGGCCAUGAACUGGAUGAGAGCGGUCUCUACUGCAACAGCUGCCUGGCU; value = 0.0995 ratio

Study 4 — technique: protein-binding microarray; molecule type: double-stranded DNA, one strand shown; matrix: in vitro; tested at: 2540 nM top; notes: 60-bp whole probe; added: salmon DNA 0.4 mg/ml; baseline: random background probes; direction: higher = stronger binding; quantity: fitted relative affinity; shared flanks, not repeated: GCCTAGCAC … GTCTTGATTCGCTTGACGCTGCTG
Target: Interferon regulatory factor 3, full length, phosphomimetic (IRF3, Homo sapiens, UniProt Q14653, residues 1-427, S386D/S396D/S398D/S402D/T404D/S405D)
Target sequence (chain): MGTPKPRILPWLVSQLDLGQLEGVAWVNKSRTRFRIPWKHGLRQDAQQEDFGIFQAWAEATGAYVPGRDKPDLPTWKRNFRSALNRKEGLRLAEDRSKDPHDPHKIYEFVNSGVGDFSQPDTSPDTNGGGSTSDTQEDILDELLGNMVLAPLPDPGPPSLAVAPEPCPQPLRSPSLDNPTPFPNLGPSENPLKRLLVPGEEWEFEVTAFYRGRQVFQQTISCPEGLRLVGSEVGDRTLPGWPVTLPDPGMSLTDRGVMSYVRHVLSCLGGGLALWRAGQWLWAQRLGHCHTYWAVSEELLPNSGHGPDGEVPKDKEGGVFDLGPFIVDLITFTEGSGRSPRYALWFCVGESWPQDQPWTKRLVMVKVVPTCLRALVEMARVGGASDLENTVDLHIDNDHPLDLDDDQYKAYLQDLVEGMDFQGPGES
Sequence = GAGGATTTCGGGTTTCGAGACGTGCTA; value = 1.62 z-score
Sequence = TCATCTTTTATTTTTTTACTGTGCTAG; value = 1.28 z-score
Sequence = TTTTCACTTTCTTTAACATAGTGCTAG; value = 4.6 z-score
Sequence = GTGGCCTTTGTTTCCAGGCAGTGCTAG; value = 0.953 z-score
Sequence = GACGGTTTCGGATCCGGGACGTGCTAG; value = 7.49 z-score
Sequence = GACGAACTGAGTATCCAGACGTGCTAG; value = 0.52 z-score
Sequence = GTGTTTTTCTCCTATTTAAGAGTGCTA; value = 2.47 z-score
Sequence = TTAGGTATCCTACTGCCTTAGTGCTAG; value = 2.61 z-score
Sequence = GACCATTCCAGTTTCGAGACGTGCTAG; value = 3.15 z-score
Sequence = GACGGAGTGGGGTATCGGGACGTGCTA; value = -0.338 z-score
Sequence = TTAGAACTGAGACTGGATTTGTGCTAG; value = -0.521 z-score
Sequence = TCAGAATTTACTTTCTACGTGTGCTAG; value = 1.35 z-score
Sequence = GTCGAACTGGGGTATCGAGACGTGCTA; value = 0.051 z-score
Sequence = TTAGAGCTGGGGTATCGATTAGTGCTA; value = -0.779 z-score
Sequence = CTCTGCTTGCGTCTGGGTGTGTGCTAG; value = -0.818 z-score
Sequence = TTAGGTATCCTTTTCTTTTAGTGCTAG; value = 8.36 z-score
Sequence = TCAAGTTTTCTTTTCCAACTGTGCTAG; value = 5.56 z-score
Sequence = TCATGCTTTCATTTATTACTGTGCTAG; value = 1.04 z-score
Sequence = TTAGGACTGGGGTTTTGGTTAGTGCTA; value = -0.654 z-score
Sequence = TTAGGCCTGCTTATCCTTTAGTGCTAG; value = -0.396 z-score
Sequence = GACGGACTGGGGTATCGGGCCGTGCTA; value = -0.901 z-score
Sequence = TTGGATTTCGGGTATCGATTAGTGCTA; value = 0.961 z-score
Sequence = CTTAGAATAATTTTTTAGCTTGTGCTA; value = -0.242 z-score
Sequence = TTAGATATCAGTATCGATGAGTGCTAG; value = 1.23 z-score
Sequence = TTAGGTATCGACAGTGGGTTAGTGCTA; value = -0.423 z-score

For quick reference, copied from above (study 1):
Sequence = UACUGACAUGAGUGUCCAAUAUAUGGUAUAUUUUUCUAAUAUAAUACUCUGGUAUGAUUGGUUCUGUUGGAAACUGAUUUAGGUGAAUACAGACAUACCAUAGGGGUAAG; value = 0.407
Sequence = AAAGUAUGUUCAUGAAUACCCCAAGCAUCAAGGUCUAAAUAAUUUUCAGAAGAUUAGAAUUGGGUAGAUAUACUGUUGGAUAUAGCCAUGGUAAAUUUAACUGAGGAAUU; value = 0.62
Sequence = UGAAUUAAUCUUUUCUCUUAAUUUUUAUUAUGUACUAGUUGUAUUAAAGCUAAUGUGUUUACUUUUUCCUCUUGUGGAUUUGUAGCUGUUUAAAAUUUCAGGUGAAUUUC; value = 0.809
Sequence = UGACUAGAUAUAGCACCUAUUAAAAGAGAACUCUUGCUUCUUCUGAGAUUUUUCAAGCUGUGCUUUGUGUGUGUGCCAGUAGACUUACGCAAGGACAGGGUACAAACUUA; value = 0.392
Sequence = GUGAUCUGCACUGGCCACUUGGCAGGCACAAGCUGCUUCCUUCCCCUCAGGUCUUAACCCUUCCCAGACCUGCAGCGAUUCCUGUCGACUCCCUUACACAGUAUUGAUCU; value = 1.88
Sequence = AUAAGCUUACCAGUGACCUUGUUCACUUUGAGUCAGGGAACGUAUUUGUAAAAUUAACACUAAAGAUGCAUGUGAGUCAUUUCACCAAAAGGAACUCUAUUAAUAAGCUA; value = 4.01
